Experimental data gathered from unrelated publications.
Each numbered part is a random draw from the data of one study; scales do not carry over between parts. “And” joins repeats or separate records; there may be more than shown.
Sequence of UniProt Q9H3Y6 (whole entry, looked up): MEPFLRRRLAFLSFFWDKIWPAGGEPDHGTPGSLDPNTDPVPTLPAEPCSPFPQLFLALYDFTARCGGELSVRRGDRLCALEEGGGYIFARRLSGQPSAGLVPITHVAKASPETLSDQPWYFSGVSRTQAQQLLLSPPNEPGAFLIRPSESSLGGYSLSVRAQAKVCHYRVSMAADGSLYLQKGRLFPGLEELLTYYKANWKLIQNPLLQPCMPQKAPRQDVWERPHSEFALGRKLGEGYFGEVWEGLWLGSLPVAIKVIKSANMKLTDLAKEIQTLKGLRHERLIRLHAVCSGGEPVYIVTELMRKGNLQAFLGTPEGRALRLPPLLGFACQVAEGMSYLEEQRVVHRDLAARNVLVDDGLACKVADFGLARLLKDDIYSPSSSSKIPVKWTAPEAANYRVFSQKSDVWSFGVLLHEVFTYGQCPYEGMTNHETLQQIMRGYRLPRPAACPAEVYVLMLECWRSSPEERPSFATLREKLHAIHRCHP
Sequence of UniProt P10721 (whole entry, unmodified, looked up): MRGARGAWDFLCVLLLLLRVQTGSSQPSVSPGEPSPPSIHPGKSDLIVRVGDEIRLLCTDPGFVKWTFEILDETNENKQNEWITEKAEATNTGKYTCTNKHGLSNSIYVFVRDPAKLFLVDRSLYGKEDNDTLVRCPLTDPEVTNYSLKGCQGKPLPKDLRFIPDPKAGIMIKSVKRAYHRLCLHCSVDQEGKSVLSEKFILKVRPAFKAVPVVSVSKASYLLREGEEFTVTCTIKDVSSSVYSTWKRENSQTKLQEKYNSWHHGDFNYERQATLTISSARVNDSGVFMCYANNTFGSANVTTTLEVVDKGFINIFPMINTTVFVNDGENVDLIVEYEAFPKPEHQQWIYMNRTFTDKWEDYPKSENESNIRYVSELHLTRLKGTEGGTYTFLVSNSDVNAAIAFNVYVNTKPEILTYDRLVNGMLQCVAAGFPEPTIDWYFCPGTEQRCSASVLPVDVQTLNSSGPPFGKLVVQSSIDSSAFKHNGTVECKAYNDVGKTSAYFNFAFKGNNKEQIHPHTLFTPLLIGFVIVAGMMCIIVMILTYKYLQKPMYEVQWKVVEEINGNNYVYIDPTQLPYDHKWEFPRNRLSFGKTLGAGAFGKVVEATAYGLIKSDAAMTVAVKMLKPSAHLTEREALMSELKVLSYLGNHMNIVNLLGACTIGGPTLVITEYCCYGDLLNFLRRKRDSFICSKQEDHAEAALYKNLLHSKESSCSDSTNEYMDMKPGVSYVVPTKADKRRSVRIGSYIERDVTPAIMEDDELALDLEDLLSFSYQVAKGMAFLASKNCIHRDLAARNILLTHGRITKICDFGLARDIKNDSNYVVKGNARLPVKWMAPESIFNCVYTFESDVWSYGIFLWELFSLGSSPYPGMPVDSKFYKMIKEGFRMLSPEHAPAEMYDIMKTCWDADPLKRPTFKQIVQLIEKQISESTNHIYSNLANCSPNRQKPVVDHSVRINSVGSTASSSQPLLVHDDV
Sequence of UniProt Q9H2X6 (whole entry, looked up): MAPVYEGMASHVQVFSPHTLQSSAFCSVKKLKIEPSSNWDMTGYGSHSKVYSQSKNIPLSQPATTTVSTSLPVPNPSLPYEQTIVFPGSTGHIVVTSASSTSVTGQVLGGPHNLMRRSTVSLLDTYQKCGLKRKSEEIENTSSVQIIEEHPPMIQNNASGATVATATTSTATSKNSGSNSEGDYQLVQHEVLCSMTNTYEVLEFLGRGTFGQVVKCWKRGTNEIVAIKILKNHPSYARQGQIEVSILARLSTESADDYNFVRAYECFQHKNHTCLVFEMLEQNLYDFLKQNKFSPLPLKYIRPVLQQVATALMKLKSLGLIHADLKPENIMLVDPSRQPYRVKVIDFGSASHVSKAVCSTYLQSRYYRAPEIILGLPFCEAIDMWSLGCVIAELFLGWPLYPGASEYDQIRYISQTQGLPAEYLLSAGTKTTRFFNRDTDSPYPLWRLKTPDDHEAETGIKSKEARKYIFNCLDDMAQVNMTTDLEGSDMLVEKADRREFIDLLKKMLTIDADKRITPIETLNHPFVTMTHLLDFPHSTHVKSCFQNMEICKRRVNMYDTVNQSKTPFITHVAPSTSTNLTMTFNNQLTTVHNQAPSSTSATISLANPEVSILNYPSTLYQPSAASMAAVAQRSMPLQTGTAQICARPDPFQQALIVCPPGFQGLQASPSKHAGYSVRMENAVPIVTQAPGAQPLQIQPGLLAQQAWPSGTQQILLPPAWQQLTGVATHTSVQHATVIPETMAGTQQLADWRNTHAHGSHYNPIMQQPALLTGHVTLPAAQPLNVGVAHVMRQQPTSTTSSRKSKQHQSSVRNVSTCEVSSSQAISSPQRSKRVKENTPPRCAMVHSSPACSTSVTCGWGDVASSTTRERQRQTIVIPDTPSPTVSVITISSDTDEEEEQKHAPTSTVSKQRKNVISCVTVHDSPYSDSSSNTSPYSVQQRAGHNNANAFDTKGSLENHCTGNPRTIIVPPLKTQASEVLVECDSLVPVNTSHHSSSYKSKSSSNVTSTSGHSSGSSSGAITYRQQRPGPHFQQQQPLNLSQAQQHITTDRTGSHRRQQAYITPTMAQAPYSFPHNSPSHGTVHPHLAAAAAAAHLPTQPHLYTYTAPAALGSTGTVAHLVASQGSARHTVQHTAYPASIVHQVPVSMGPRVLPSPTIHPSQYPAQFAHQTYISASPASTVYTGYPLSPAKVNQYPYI
Sequence of UniProt P54762 (whole entry, looked up): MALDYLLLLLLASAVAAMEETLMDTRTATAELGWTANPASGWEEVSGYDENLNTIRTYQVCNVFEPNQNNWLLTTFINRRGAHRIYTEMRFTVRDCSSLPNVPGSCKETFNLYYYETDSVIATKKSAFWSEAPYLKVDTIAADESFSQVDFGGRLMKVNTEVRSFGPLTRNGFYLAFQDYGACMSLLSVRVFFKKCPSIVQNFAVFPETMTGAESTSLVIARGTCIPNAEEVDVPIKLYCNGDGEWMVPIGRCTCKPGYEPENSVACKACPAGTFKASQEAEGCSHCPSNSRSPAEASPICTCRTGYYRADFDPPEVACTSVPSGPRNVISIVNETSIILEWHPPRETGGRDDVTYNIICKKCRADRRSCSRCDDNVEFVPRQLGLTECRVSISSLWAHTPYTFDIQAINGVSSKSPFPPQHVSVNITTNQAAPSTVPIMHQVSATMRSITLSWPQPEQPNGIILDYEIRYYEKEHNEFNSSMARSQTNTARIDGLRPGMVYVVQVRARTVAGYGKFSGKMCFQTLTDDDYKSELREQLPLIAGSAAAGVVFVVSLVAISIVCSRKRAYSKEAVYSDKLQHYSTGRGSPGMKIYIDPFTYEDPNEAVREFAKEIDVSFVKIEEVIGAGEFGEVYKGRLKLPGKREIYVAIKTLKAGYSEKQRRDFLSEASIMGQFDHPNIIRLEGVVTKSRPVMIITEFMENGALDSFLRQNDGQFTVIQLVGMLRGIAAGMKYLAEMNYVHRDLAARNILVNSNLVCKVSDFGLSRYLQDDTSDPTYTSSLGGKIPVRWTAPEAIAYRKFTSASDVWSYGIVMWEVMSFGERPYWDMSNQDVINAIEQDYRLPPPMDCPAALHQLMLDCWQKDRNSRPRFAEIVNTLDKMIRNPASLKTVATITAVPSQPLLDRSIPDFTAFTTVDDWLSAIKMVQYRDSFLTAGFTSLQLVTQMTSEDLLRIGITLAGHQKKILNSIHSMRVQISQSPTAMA
Sequence of UniProt P51451 (whole entry, looked up): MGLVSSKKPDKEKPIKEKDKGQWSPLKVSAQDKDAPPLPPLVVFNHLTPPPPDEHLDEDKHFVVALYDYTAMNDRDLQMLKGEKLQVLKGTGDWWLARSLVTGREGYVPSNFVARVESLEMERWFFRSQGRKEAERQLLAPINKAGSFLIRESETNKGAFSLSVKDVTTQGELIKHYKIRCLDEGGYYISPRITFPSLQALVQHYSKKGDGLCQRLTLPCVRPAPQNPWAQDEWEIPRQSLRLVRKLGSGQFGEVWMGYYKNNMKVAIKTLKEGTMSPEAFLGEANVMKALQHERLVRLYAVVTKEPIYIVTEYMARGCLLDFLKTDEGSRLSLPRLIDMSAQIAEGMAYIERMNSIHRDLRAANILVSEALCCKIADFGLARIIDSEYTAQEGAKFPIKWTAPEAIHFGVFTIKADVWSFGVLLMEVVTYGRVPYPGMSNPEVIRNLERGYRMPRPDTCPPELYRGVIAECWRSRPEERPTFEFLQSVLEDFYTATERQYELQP
Sequence of UniProt O75676 (whole entry, looked up): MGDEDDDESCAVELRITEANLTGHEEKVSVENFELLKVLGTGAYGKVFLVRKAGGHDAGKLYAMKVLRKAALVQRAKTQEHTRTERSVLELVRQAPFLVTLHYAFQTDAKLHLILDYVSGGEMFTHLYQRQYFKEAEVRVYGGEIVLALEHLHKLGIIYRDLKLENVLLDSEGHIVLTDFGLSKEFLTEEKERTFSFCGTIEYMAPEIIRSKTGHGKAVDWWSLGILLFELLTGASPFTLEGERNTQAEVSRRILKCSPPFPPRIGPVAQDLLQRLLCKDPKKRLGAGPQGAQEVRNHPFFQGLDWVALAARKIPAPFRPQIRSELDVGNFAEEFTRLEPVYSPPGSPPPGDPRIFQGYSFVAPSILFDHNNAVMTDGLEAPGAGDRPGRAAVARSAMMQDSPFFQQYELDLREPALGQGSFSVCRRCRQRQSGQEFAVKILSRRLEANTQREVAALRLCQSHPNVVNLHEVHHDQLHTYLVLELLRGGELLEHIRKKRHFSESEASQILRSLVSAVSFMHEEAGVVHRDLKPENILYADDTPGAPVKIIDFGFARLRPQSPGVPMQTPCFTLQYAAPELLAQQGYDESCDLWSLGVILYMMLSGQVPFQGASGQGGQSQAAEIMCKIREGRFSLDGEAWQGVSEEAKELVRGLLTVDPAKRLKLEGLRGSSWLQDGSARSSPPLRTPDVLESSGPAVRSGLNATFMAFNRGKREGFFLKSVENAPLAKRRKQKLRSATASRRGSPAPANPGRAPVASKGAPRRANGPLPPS

Study 1 — effect on: cell-free assay; method: competition with immobilised ligand; concentration: 1 µM
SMILES: CN(C(=O)c1ccccc1)c1cc(N(C)c2ccc3c(c2)CCc2ccc(C(=O)NCCN4CCOCC4)cc2C3=O)ccc1F
target | remaining binding [%]
CSNK1A1 (Homo sapiens, UniProt P48729) | 100
MET (Homo sapiens, UniProt P08581) | 77
PLK2 (Homo sapiens, UniProt Q9NYY3) | 91
BRSK1 (Homo sapiens, UniProt Q8TDC3) | 88
SRMS (Homo sapiens, UniProt Q9H3Y6) | 77
KIT (Homo sapiens, UniProt P10721, A829P) | 100
ERBB3 (Homo sapiens, UniProt P21860) | 100
CIT (Homo sapiens, UniProt O14578) | 70
CLK1 (Homo sapiens, UniProt P49759) | 86
PIKFYVE (Homo sapiens, UniProt Q9Y2I7) | 63
CLK4 (Homo sapiens, UniProt Q9HAZ1) | 95
CDKL1 (Homo sapiens, UniProt Q00532) | 80
STK3 (Homo sapiens, UniProt Q13188) | 100
PIK3C2B (Homo sapiens, UniProt O00750) | 91
NEK10 (Homo sapiens, UniProt Q6ZWH5) | 100
KIT (Homo sapiens, UniProt P10721, L576P) | 100
DYRK1A (Homo sapiens, UniProt Q13627) | 100
Ribosomal protein S6 kinase alpha-4, C-terminal kinase domain (RPS6KA4, Homo sapiens, UniProt O75676) | 100
EGFR (Homo sapiens, UniProt P00533, G719S) | 70
MYLK (Homo sapiens, UniProt Q15746) | 100
NLK (Homo sapiens, UniProt Q9UBE8) | 100
TNIK (Homo sapiens, UniProt Q9UKE5) | 100
TNK1 (Homo sapiens, UniProt Q13470) | 94

Study 2 — SMILES: O=c1cc(N2CCOCC2)oc2c(-c3ccccc3)cccc12; effect on: enzyme activity; mode: inhibitor; concentration: 0.5 µM; baseline: control
target | remaining activity [%]
CAMK2B (Homo sapiens, UniProt Q13554) | 110
EPHB1 (Homo sapiens, UniProt P54762) | 95.9
AXL (Homo sapiens, UniProt P30530) | 110
STK17A (Homo sapiens, UniProt Q9UEE5) | 93.5
STK16 (Homo sapiens, UniProt O75716) | 97.5
WNK3 (Homo sapiens, UniProt Q9BYP7) | 89.2
PHKG1 (Homo sapiens, UniProt Q16816) | 90.1
PDPK1 (Homo sapiens, UniProt O15530) | 104
EPHB4 (Homo sapiens, UniProt P54760) | 99.5
Cyclin-dependent kinase 6, with cyclin D3 (CDK6, Homo sapiens, UniProt Q00534) | 101
HIPK2 (Homo sapiens, UniProt Q9H2X6) | 122
BLK (Homo sapiens, UniProt P51451) | 120
TSSK2 (Homo sapiens, UniProt Q96PF2) | 91.4
HIPK4 (Homo sapiens, UniProt Q8NE63) | 102
Cyclin-dependent kinase 4, with cyclin D3 (CDK4, Homo sapiens, UniProt P11802) | 96.2
DYRK3 (Homo sapiens, UniProt O43781) | 100
EPHA4 (Homo sapiens, UniProt P54764) | 99.2
RPS6KA5 (Homo sapiens, UniProt O75582) | 99.5
Cyclin-dependent kinase 1, with cyclin B (CDK1, Homo sapiens, UniProt P06493) | 115
MAPKAPK3 (Homo sapiens, UniProt Q16644) | 101
SRMS (Homo sapiens, UniProt Q9H3Y6) | 103
ABL1 (Homo sapiens, UniProt P00519) | 99.2
MAP4K4 (Homo sapiens, UniProt O95819) | 93.5

Study 3 — SMILES: CCOc1ccc(Nc2c3c(nc4ccccc24)CCC3)cc1; organism: Leishmania donovani; strain: DD8
effect on | method | sample | concentration | time | inhibition
parasite killing | – | intracellular amastigotes | 0.4 µM | 24 h | 11% and 9% and 14%
parasite killing | – | promastigotes | 16.66 µM | 48 h | 98% and 97%
parasite killing | – | intracellular amastigotes | 4 µM | 96 h | 94% and 69% and 97%
parasite viability | resazurin | promastigotes | 33.33 µM | – | 100%
parasite killing | – | promastigotes | 3.33 µM | 96 h | 69% and 71% and 68%

Single results of other studies
Structure (SMILES) | cell line | method | concentration | time | added | baseline | GCase activity
Cc1cccc(/C=N/Nc2cc(N3CCOCC3)nc(OCCc3ccccn3)n2)c1 | L444P/L444P Gaucher fibroblasts | 4-MUG hydrolysis in lysate | 0.5 µM | 72 h | ISRIB | vehicle | 184% and 229% and 193% and 195% and 203% and 179% and 202%
c1ccc2c(-c3nn4c(-c5ccncc5)nnc4s3)c[nH]c2c1 | Gaucher fibroblasts L444P/L444P | 4-MUG hydrolysis, cell lysate | 1 µM | – | – | DMSO | 167% and 195%
Ic1ccc(Nc2nc(NCCN3CCOCC3)nc(N3CCOCC3)n2)cc1 | Gaucher fibroblasts L444P/L444P | 4-MUG hydrolysis, cell lysate | 1 µM | 72 h | ISRIB | vehicle | 167% and 151% and 163% and 146% and 117% and 137%

Some of these lines once more (study 3):
effect on | method | sample | concentration | time | inhibition
parasite killing | – | intracellular amastigotes | 0.4 µM | 24 h | 11% and 9% and 14%
parasite killing | – | promastigotes | 16.66 µM | 48 h | 98% and 97%
parasite killing | – | intracellular amastigotes | 4 µM | 96 h | 94% and 69% and 97%
parasite viability | resazurin | promastigotes | 33.33 µM | – | 100%
parasite killing | – | promastigotes | 3.33 µM | 96 h | 69% and 71% and 68%
